Experimental data collected from several papers.
Every numbered part comes from another study and shows a few of its results, in no order.

Set 1
Target: RING finger protein unkempt homolog, zinc fingers 1-6, GST-SBP tag (UNK, Homo sapiens, UniProt Q9C0B0, residues 30-357)
Technique: RNA Bind-n-Seq
Form: RNA
Sample: in vitro
Tested at: not given
Setting: RNA with constant flanks, human and mouse sites, ends assumed
Baseline: input RNA pool
Reading: higher = stronger binding
Construct (chain): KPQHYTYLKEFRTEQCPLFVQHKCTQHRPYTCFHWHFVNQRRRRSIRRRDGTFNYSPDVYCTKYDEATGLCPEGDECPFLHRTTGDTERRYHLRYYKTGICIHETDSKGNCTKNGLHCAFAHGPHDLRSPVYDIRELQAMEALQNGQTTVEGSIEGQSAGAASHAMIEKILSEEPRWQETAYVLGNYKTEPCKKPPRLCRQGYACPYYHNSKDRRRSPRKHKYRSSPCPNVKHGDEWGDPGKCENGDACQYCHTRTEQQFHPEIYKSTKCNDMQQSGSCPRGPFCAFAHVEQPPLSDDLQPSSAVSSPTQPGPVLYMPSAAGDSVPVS
The bound/input enrichment of `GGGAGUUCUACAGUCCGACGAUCGAGUUUCUUGCUUUGACAUUCAGUGAAAAUGAGAAAAACGCUGCGUACUAUGCGUUAGCAAUAGUGCAUGGAGCGGCCGCUUAUCUCCCAGACUUCUUGGACUACUUUGCUUUUAAUUUUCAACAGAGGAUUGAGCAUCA` is reported as 0.0732 ratio.
The bound/input enrichment of `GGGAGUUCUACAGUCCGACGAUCUCACUUGCUCAGCGUUUGGAAAAACACGAACUCAUUGAAUUCAGAAGAAUUGCUGCUUAUCUCUUCAAAGGCAACAAUCGCUGGAAACAGAGUGUAGAGUUGUGCAAGAAAGACAGCCUUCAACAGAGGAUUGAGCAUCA` is reported as 0.0995 ratio.
`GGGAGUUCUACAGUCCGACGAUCAGACACAAGCUCUUGGUGCUGUCUGGGAAAGGCGGCGUUGGGAAAAGCACGUUCAGUGCACACCUCGCCCACGGCCUAGCGGAGGAUGGAGAUACACAGGUUGCUCUUCUGGACAUCGAUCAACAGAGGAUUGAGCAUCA` gave a bound/input enrichment of 0.0827 ratio.
`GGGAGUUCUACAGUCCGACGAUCGCCUCGCCCGCCUGGCAGCCUAACCCUCCUUCUCUUCUUCUCCUCUCCGGCUUCGCGCGGCCCUGCCUCCCUCUCGCCCGGCGGCAUCCGCUUGCUGCUGCCACCGCCUCCUCAUCUUCUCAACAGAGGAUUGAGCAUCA` gave a bound/input enrichment of 0.379 ratio.
For `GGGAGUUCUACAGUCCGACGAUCUUUGUGAAUUUCUCUGAGCAGAAGGAAAAGCUGAUAAAGCGGCAAGAGGAAUUGGAUAGAGGCUACAAAUCAAUCAUGGAAUUGAUGAAUGUACUUGAACUUAGAAAAUAUGAAGCUAUUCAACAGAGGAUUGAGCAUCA`, the bound/input enrichment was 1.27 ratio.
The bound/input enrichment of `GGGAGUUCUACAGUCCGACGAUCUCUGUGUAUGCACACUCCACCCCAGAGUGUUUUCAGUGUGCCAGAGAAGCAGCUGUAGCGUUAGGACAUGAGCCUGUCUAGUGUUUCCUAGGAAAGGGAUAGUUUUCUGUUGGUAUAGCACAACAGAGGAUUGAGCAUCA` is reported as 3.22 ratio.
The bound/input enrichment of `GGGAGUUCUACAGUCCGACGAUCUAGUGGCAGUUCAUUGCAACAAAUGGCCUUAAGAUGCUGGAGCCUCAAGUUCAAGCAGUCCGAUCACCAGUUCCUCCAUCAGAGCAAUGUCUUCCAUCACAUCAACAACAUCUUGUCGAACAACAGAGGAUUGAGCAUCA` is reported as 0.107 ratio.
`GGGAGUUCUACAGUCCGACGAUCAUUCUUUACAACUUGGUCUUGAGAAAUCUUGAAGAAAGAAAUUAUACAGAAUAUAAACCUUUGUGCCCAGAAGAUAAAGAUGUGGUAGAAAAUGGAUUGAUAGCAGGAGCAGUAGAUCUGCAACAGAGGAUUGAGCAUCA` gave a bound/input enrichment of 0.566 ratio.

Set 2
Target: Sal-like protein 4, full length isoform A (SALL4, Homo sapiens, UniProt Q9UJQ4, residues 1-1053)
Chain of UniProt Q9UJQ4 (whole entry, looked up): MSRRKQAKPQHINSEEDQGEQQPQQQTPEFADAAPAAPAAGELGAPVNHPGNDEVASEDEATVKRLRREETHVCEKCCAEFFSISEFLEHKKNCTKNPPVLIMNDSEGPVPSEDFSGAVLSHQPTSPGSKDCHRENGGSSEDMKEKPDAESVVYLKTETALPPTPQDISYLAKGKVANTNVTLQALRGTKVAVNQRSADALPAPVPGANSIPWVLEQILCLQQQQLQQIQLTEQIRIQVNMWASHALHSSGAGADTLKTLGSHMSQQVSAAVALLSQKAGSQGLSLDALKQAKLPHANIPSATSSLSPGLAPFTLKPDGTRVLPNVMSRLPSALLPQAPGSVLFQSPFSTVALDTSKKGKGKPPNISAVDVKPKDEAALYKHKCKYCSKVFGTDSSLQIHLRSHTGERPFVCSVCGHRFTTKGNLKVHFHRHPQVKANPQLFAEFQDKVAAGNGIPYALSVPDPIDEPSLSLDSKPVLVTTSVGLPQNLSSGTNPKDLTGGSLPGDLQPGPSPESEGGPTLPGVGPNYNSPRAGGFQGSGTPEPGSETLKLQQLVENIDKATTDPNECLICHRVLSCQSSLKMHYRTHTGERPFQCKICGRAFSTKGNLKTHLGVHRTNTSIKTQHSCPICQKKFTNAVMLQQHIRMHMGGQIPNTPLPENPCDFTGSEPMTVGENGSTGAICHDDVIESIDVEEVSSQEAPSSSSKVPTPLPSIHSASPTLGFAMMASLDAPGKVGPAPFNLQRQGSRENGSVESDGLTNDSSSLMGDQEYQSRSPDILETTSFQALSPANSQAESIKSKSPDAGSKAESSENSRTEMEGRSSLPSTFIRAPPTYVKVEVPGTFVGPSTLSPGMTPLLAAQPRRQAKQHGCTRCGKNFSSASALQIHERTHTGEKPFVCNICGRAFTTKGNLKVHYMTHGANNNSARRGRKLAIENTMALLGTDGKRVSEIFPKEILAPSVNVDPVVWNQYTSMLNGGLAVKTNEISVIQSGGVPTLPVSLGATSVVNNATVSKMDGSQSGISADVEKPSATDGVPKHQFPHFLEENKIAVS
Technique: universal PBM
Form: double-stranded DNA, one strand shown
Sample: in vitro
Tested at: 600 nM
Setting: 8-mer, flanks averaged, mean of replicates
Reading: higher = stronger binding
The E-score of `AGTCCCGA` is reported as -0.231.
The E-score of `AAGCTGTA` is reported as 0.133.
With `AGGCAGAG` the E-score was -0.00668.
`CTTGATGC` gave an E-score of -0.101.
With `CGTTCCTA` the E-score was 0.0841.
For `GCGCTCGA`, the E-score was -0.141.
With `CGACCTTC` the E-score was -0.0837.
The E-score of `AGTTTGAG` is reported as -0.0312.
`ATCTGGAA` has an E-score of 0.147.
`ATCGGCTA` has an E-score of 0.0481.
`AAGCACCG` has an E-score of -0.239.
`TGCCGGCA` has an E-score of -0.0894.
`ATCCTACG` has an E-score of 0.00036.
For `ACTGAACG`, the E-score was -0.0327.
With `CCGTGGCA` the E-score was -0.187.
The E-score of `CCTCGGTC` is reported as -0.382.
With `CTGACCTA` the E-score was -0.0542.

Set 3
Target: Ras GTPase-activating protein-binding protein 1, full length (G3BP1, Homo sapiens, UniProt Q13283)
Chain of UniProt Q13283 (whole entry, looked up): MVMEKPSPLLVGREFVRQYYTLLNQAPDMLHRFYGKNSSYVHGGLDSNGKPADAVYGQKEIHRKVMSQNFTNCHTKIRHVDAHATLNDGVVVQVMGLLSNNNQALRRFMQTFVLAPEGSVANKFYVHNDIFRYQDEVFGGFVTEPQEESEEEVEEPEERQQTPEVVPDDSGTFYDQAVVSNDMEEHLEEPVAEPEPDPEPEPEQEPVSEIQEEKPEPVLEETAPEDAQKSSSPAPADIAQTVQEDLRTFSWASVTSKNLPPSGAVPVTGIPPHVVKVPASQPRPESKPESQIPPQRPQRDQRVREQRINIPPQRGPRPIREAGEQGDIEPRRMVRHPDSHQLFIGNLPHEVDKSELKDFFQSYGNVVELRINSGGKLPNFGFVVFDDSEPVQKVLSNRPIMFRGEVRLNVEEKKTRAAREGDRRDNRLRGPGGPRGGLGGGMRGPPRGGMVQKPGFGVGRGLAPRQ
Technique: RNA Bind-n-Seq
Form: RNA
Sample: in vitro
Tested at: 200 nM
Setting: whole 134-nt RNA, ends assumed
Added: 150 mM KCl
Baseline: input library
Reading: higher = stronger binding
The log2 enrichment of `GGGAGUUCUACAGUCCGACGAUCUAACUUUAGAGGAGGAUCUGAUCGAUAUGGCAGUGGACGUGGAUUUGGGGAUGGCUAUAAUGGGUAUGGAGGAGGACCUGGAGGUGGCAAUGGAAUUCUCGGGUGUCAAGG` is reported as 0.445.
For `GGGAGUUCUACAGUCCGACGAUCUCAAGUCCUGUGCUACACAUCGUAUGUACCGAAUCGGUUUGGAAAAAGGUUUGGAAAGUAUUAUGUUACGCCGUUCGGAUCUGCACUUCCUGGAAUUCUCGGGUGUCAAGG`, the log2 enrichment was -1.03.
`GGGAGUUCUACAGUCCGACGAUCAAGUCCUGUGCUACACAUCGUAUGUACCGAAUCGGGGUUUGGGGUGGGGUUUGGGGAAAGUAUUAUGUUACGCCGUUCGGAUCUGCACUUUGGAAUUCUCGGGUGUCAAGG` has a log2 enrichment of 0.24.
`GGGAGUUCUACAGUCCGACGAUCCUCAAGUCCUGUGCUACACAUCGUAUGUACCGAAUCGGGUGGGUGGGGUGGGGAAAGUAUUAUGUUACGCCGUUCGGAUCUGCACUUCCAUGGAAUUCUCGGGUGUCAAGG` has a log2 enrichment of 1.27.
With `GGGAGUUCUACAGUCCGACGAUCUGAAAUGUUUUUUUCUCUGUCUUCUUUCAGGUCUUUGUUGAGUAUGCAAAUGCUGGUGAUUCCAAAGCUGCGCAGAAAUUACUGACUGGAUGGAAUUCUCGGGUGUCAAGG` the log2 enrichment was -1.38.
`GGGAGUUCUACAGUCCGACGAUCAAGUCCUGUGCUACACAUCGUAUGUACCGAAUCGGGGCCCCGGCCCCGGGCCCCGGGAAAGUAUUAUGUUACGCCGUUCGGAUCUGCACUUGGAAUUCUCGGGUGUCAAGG` gave a log2 enrichment of -0.923.
The log2 enrichment of `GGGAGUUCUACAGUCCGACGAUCGUCCUGUGCUACACAUCGUAUGUACCGAAUCGGGCCCCCCGGCCCCCCGGGCCCCCCGGAAAGUAUUAUGUUACGCCGUUCGGAUCUGCAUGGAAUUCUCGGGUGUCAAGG` is reported as -0.195.
With `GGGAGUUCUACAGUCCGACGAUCUAACUUUAGAGGAGGAUCUGAUGGAUAUGGAAGUGGACGUGGAUUUGGGGAUGGCUAUAAUGGGUAUGGAGGAGGACCUGGAGGUGGCAAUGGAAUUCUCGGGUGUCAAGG` the log2 enrichment was 0.388.
With `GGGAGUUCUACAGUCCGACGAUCCCUGUGCUACACAUCGUAUGUACCGAAUCGGGGAAAAAGGGGAAAAAGGGGAAAAAGGGGAAAGUAUUAUGUUACGCCGUUCGGAUCUGCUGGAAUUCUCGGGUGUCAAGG` the log2 enrichment was 0.155.

Set 4
Target: RNA binding protein fox-1 homolog 2, RRM domain, GST-SBP tag (RBFOX2, Homo sapiens, UniProt O43251-10, residues 100-194)
Technique: RNA Bind-n-Seq
Form: RNA
Sample: in vitro
Tested at: 365 nM
Setting: natural RNA segment, single round, ends assumed
Baseline: no-protein control
Reading: higher = stronger binding
Construct (chain): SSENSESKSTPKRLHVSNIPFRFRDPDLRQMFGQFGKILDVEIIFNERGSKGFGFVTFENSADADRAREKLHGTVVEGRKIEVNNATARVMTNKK
Under “RBNS enrichment (R)”, `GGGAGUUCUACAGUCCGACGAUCAAGACAAAGAAAUUGUCCUCCAACUCAGCUUUUCCCCCCCUGUUUGGGUGAAAGUGGUUCUAGAACCUGCACUGAAUAGUAGUAAAGCAAUAAGGCCCGAUUCAUCCCACUGGAAUUCUCGGGUGCCAA` is recorded as 0.318.
`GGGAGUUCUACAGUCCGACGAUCCUGUCUGAUCGUGAAGCACCUGAAUUUACAGAAGAUGCAGAAAGCCUCGUUUUCUCUGCGUGGUUCAGCUACUUUCCAUUUGGUAUUAUGCACUCAAACUUAACAUUUAUUGGAAUUCUCGGGUGCCAA` — result for “RBNS enrichment (R)”: 0.411.
`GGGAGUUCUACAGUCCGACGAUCAACUUAGAAACCAAAGACUAACUCUCUAGGGGAUCCUGCUGCUUUGCUUUCCUUCCUCGCUACUUCCUAAAAAGCAACAAAAAAGUUUUUGUGAAUGCUGCAAGAUUGUUUGGAAUUCUCGGGUGCCAA` — result for “RBNS enrichment (R)”: 0.451.
`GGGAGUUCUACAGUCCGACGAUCCCCAUGAUUGGCUAUAAACGUUUUGUAAGAAGUCACUCUCCUUGAAAAUACUGAACAUAGCUGUAUAGGUUUGUGAUUAUUAGAGAAUAUGUUAAUAAAACUUCUUGUAAUGGAAUUCUCGGGUGCCAA`: “RBNS enrichment (R)” 0.553.
Under “RBNS enrichment (R)”, `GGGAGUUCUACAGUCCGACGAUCCCAGACAAGCUUCAUUCUGAUGCGCUAGUCCCUUGGUUUAAUUUGUGCCUUAUGCUUUCAUUGGACCAGCUGAAAUCACUGUAUUUAUUCAACUAGUGAUUUUUUUUUCUUGGAAUUCUCGGGUGCCAA` is recorded as 0.562.
For `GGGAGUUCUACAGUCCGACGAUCCAGUUUGCUCCCUGUUGACAUAGGGAAAAACUGAGUGUCAUAGGCAGUAUUUCACAGUGGACAUUUCACAGUAUUUCACAGUCUUGCCUGUGGCCUGCUGGCUGCAUGCUUGGAAUUCUCGGGUGCCAA`, “RBNS enrichment (R)” read 1.9.
`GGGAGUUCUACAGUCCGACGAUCGGGGGCUCCCUGGCGCAUGCCUGCUCCUGUCCCUGGAUUACCACACGUGCCCUCCCUGCCACCCUCCGUCUAGAGCAAGCGGAUGCCCCCCAGCCUGCAGCAGAAGCCUCUGGAAUUCUCGGGUGCCAA`: “RBNS enrichment (R)” 2.23.
For `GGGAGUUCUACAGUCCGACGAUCUUCUAAACAAUAAAAGGGCACCUGGAAUUUUCAGAACAUUAAAAAACUGAAACCACUUAGAAGAAAAGAAGAAACCUAAAUGUCUGUGGAAGUGAUCAGUAUUAAGUGGGUGGAAUUCUCGGGUGCCAA`, “RBNS enrichment (R)” read 0.464.

Set 5
Target: Histone acetyltransferase KAT6A, both winged helices, GST fusion (KAT6A, Homo sapiens, UniProt Q92794, residues 1-181)
Technique: protein binding microarray
Form: double-stranded DNA, one strand shown
Sample: in vitro
Tested at: not given
Setting: 8-mer, flanks averaged, mean of 2 arrays, mostly near background
Baseline: not given
Reading: higher = stronger binding
Construct (chain): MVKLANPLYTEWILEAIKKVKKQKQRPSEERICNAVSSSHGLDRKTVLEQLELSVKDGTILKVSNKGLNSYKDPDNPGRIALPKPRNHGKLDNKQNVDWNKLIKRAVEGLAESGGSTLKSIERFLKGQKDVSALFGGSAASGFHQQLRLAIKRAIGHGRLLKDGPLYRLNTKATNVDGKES
With `ATTCTTGC` the E-score was -0.0296.
The E-score of `AAAGCCGT` is reported as 0.296.
With `AAACCTTA` the E-score was -0.0286.
The E-score of `CATCTCCG` is reported as 0.0142.
The E-score of `ACATCGTC` is reported as -0.033.
`AACATGAT` has an E-score of -0.0131.
`CCAATCAA` has an E-score of -0.0333.
For `ACAAGCCT`, the E-score was -0.0604.
For `AGCATGGC`, the E-score was -0.124.
`CGACTACG` has an E-score of 0.0837.
The E-score of `CATCACCG` is reported as 0.115.
`CACCAGGC` gave an E-score of -0.126.
`CCAGTTAG` has an E-score of -0.283.
The E-score of `GAGCATAA` is reported as 0.107.
`AGGTCGGA` gave an E-score of 0.0463.
With `CGGTCGTC` the E-score was 0.153.
`AACCGGAC` gave an E-score of 0.0747.
`AGGGTGAT` has an E-score of -0.234.
The E-score of `CATCAGTA` is reported as -0.157.
With `AGGCCGGG` the E-score was 0.185.
`ACGCCCCG` gave an E-score of 0.149.
`GGGGAAAA` gave an E-score of -0.149.
